Measured values from different studies.
Lines come from different studies, so protocols differ. ± gives the spread as reported. Values after ≈ are worked out from the molar mass of the structure shown.
Organism: Staphylococcus aureus

Molecule | test | test system | setting | how to read | endpoint | result
Oc1ccc(-c2nc(-c3ccc(Oc4ccc(C(F)(F)F)cc4)cc3)no2)cc1 | survival | ATCC 27660 MRSA, mouse, peritonitis | intravenous, two doses post-infection |  | ED50 | 40 mg/kg
COCCSc1nnc(C23CC4CC(CC(C4)C2)C3)n1-c1ccccc1 |  | IFO 3060 | 200 µg/disc, 24 h, 37 °C |  | inhibition zone diameter | < 10 mm
CC[C@H]1OC(=O)[C@H](C)[C@@H](O[C@H]2C[C@@](C)(OC)[C@@H](O)[C@H](C)O2)[C@H](C)[C@@H](O[C@@H]2O[C@H](C)C[C@H](N(C)C)[C@H]2O)[C@](C)(OC)C[C@@H](C)C(=O)[C@H](C)[C@@H](O)[C@]1(C)O | checkerboard broth microdilution | ATCC 27853 | added: ranalexin |  | FIC index | 0.25
O=C(/C=C/C=C/c1ccccc1)c1ccccc1OCCBr | microbial growth, well diffusion | MTCC96 | 1000 µg/mL, 18 h |  | inhibition zone | 7 mm
CCc1cc(=O)c2c(OCC(O)CNC(C)C)c3ccoc3c(OC)c2o1 (stereo not shown) | microbial growth, broth dilution | NCTC4163 | 19 h |  | MIC | > 256 µg/mL
CCC(=O)O[C@H]1[C@H](C)O[C@@H](O[C@H]2[C@H](N(C)C)[C@@H](O)[C@H](O[C@H]3[C@@H](CC=O)C[C@@H](C)[C@@H](O)/C=C/C=C/C[C@@H](C)OC(=O)C[C@@H](O)[C@@H]3OC)O[C@@H]2C)C[C@@]1(C)O | growth | SG 511, DMSO–methanol | 50 µL of 2.0 mM, 24 h, 37 °C |  | inhibition zone diameter | 30 mm
CCc1cc(=O)c2c(OCC3CO3)c3ccoc3c(OC)c2o1 (stereo not shown) | microbial growth, broth dilution | NCTC4163 | 19 h |  | MIC | > 256 µg/mL
CO/N=C(\C(=O)N[C@@H]1C(=O)N2C(C(=O)O)=C(CSc3nc(=O)c(=O)[nH]n3C)CS[C@H]12)c1csc(N)n1 | checkerboard | ATCC 25923 | added: magainin II |  | FIC index | 0.312
O=C(O)CSc1nnc(C23CC4CC(CC(C4)C2)C3)n1-c1ccccc1 |  | IFO 3060 | 200 µg/disc, 24 h, 37 °C |  | inhibition zone diameter | 23 mm
C/C(=C\C(=O)OCCCCCCCCC(=O)O)C[C@@H]1OC[C@H](C[C@@H]2O[C@H]2[C@@H](C)[C@H](C)O)[C@@H](O)[C@H]1O |  | MRSA, BALB/c mice, burn wound infection, skin | topical, 2% ointment twice daily for 7 days, 168 h |  | bacterial load | 2.5e+06 CFU/g
CCc1cc(=O)c2c(OCC(O)CN3CCC(C)CC3)c3ccoc3c(OC)c2o1 (stereo not shown) | microbial growth, broth dilution | ATCC6538 | 19 h |  | MIC | > 256 µg/mL
Cc1ccccc1NC(=O)C1C(=O)C(c2ccccc2)c2ccc3c(c21)C(=O)c1ccccc1C3=O (stereo not shown) | microbial growth, disc diffusion | MTCC96 | 100 µg/mL, 24 h |  | inhibition zone | 10 mm
CC[C@H](C)[C@H](NC(=O)CNC(=O)[C@H](CCC(=O)O)NC(=O)[C@H](CO)NC(=O)[C@@H](NC(=O)[C@H](CCCNC(=N)N)NC(=O)[C@H](CCCCN)NC(=O)[C@H](CCCCN)NC(=O)[C@H](C)NC(=O)[C@H](CO)NC(=O)[C@H](CC(N)=O)NC(=O)[C@H](CCC(=O)O)NC(=O)[C@H](CC(C)C)NC(=O)[C@H](CCCCN)NC(=O)[C@H](CCCCN)NC(=O)[C@H](C)NC(=O)[C@@H](NC(=O)[C@H](CCCCN)NC(=O)[C@H](CO)NC(=O)[C@H](CC(C)C)NC(=O)[C@H](Cc1c[nH]c2ccccc12)NC(=O)[C@@H](N)CO)[C@@H](C)O)[C@@H](C)CC)C(=O)N[C@@H](C)C(=O)N[C@H](C(=O)N[C@@H](C)C(=O)N[C@H](C(=O)N[C@@H](CCC(N)=O)C(=O)NCC(=O)NCC(=O)N1CCC[C@H]1C(=O)N[C@@H](CCCNC(=N)N)C(=O)O)[C@@H](C)CC)[C@@H](C)CC | broth microdilution | methicillin-susceptible clinical isolates, Mueller-Hinton broth | 18 h, 35 °C |  | MIC range | 8 to 64 µg/mL (≈ 2.4 to 19.2 µM)
COc1cc(C=Cc2cc(-c3ccccc3)nc(O)n2)ccc1O | microbial growth, disc diffusion | ATCC29213 | 250 µg/mL |  | inhibition zone | 17 mm
RWQWRWQWR | broth microdilution | peptide, ATCC 25923 |  |  | MBC | > 135 µM
CCc1cc(=O)c2c(OCC(O)CNC(C)(C)C)c3ccoc3c(OC)c2o1 (stereo not shown) | microbial growth, broth dilution | ATCC25 | 19 h |  | MIC | > 256 µg/mL

Molecule | test | test system | setting | how to read | endpoint | result
CC1(C)S[C@@H]2[C@H](NC(=O)[C@H](N)c3ccccc3)C(=O)N2[C@H]1C(=O)O | respiratory activity, inhibitor, MTT | ATCC 29213 | concentration not given | at least 70% inhibition | lowest effective concentration | 16 × MIC
C[C@H]1c2cccc(O)c2C(=O)C2=C(O)[C@]3(O)C(=O)C(C(N)=O)=C(O)[C@@H](N(C)C)[C@@H]3[C@@H](O)[C@@H]21 | checkerboard broth microdilution | clinical isolate 15-99 | added: magainin II |  | FIC index | 0.75
CC1(C)S[C@@H]2[C@H](NC(=O)[C@H](N)c3ccccc3)C(=O)N2[C@H]1C(=O)O |  | IFO 3060 | 100 µg/disc, 24 h |  | inhibition zone diameter | 23 mm
CCc1cc(=O)c2c(O)c3ccoc3c(OC)c2o1 | microbial growth, broth dilution | ATCC6538 | 19 h |  | MIC | 64 µg/mL (≈ 246 µM)
Cc1nn2c(=O)cc(Cc3ccccc3)[nH]c2c1-c1ccc(Cl)cc1 | ICP-MS |  | 0.6 µM, added: Cu 50 µM | relative to: equimolar Cu only | cell-associated Cu content | ~13 fold
CNC(C)C1CCC(N)C(OC2C(N)CC(N)C(OC3OCC(C)(O)C(NC)C3O)C2O)O1 (stereo not shown) |  | IFO 3060 | 100 µg/disc, 24 h |  | inhibition zone diameter | 26 mm
O=C(O)c1cn(C2CC2)c2cc(N3CCNCC3)c(F)cc2c1=O | respiratory activity, inhibitor, MTT | ATCC 29213 | concentration not given | at least 70% inhibition | lowest effective concentration | 32 × MIC
CN(C)c1cc(CNCC(C)(C)C)c(O)c2c1C[C@H]1C[C@H]3[C@H](N(C)C)C(O)=C(C(N)=O)C(=O)[C@@]3(O)C(O)=C1C2=O |  | MRSA 5 tetM, mouse thigh infection model | sc, 20 mg/kg, 24 h | relative to: untreated control | log10 CFU change | 2.49 log10
Nc1ccc(C(=O)O)cc1 | radiotracer uptake, competitor |  | added: 2-[18F]F-labelled compound |  | IC50 | 1000 ± 900 nM
Oc1c(Br)cc(Br)c2nc3ccccc3nc12 | Calgary Biofilm Device | MRSA 2, clinical isolate |  |  | MBC | 37.5 µM (≈ 13.3 µg/mL)
CN[C@H](CC(C)C)C(=O)N[C@H]1C(=O)N[C@@H](CC(N)=O)C(=O)N[C@H]2C(=O)N[C@H]3C(=O)N[C@H](C(=O)N[C@H](C(=O)O)c4cc(O)cc(O)c4-c4cc3ccc4O)[C@H](O)c3ccc(c(Cl)c3)Oc3cc2cc(c3O[C@@H]2O[C@H](CO)[C@@H](O)[C@H](O)[C@H]2O[C@H]2C[C@](C)(N)[C@H](O)[C@H](C)O2)Oc2ccc(cc2Cl)[C@H]1O |  | MRSA 5 tetM, mouse thigh infection model | sc, 20 mg/kg, 24 h | relative to: untreated control | log10 CFU change | 1.71 log10
CC[C@H]1OC(=O)[C@H](C)[C@@H](O[C@H]2C[C@@](C)(OC)[C@@H](O)[C@H](C)O2)[C@H](C)[C@@H](O[C@@H]2O[C@H](C)C[C@H](N(C)C)[C@H]2O)[C@](C)(O)C[C@@H](C)CN(C)[C@H](C)[C@@H](O)[C@]1(C)O |  | hospitalized pneumonia patients, clinical isolates | Fine score 70 or more |  | susceptible isolates | 38.5%
C[C@@H](O)[C@H]1C(=O)N2C(C(=O)O)=C(S[C@@H]3CN[C@H](C(=O)N(C)C)C3)[C@H](C)[C@H]12 | checkerboard broth microdilution | ATCC 25923 | added: ranalexin |  | FIC index | 1
COc1ccc(C=Nc2ncn[nH]2)cc1 | broth microdilution | MRSA2, methicillin-resistant | 16 to 24 h |  | MIC | > 256 µg/mL
CCc1cc(=O)c2c(OCC(O)CN3CCOCC3)c3ccoc3c(OC)c2o1 (stereo not shown) | microbial growth, broth dilution | ATCC25 | 19 h |  | MIC | > 256 µg/mL

Some of these lines once more:
Molecule | test | test system | setting | how to read | endpoint | result
CC[C@H]1OC(=O)[C@H](C)[C@@H](O[C@H]2C[C@@](C)(OC)[C@@H](O)[C@H](C)O2)[C@H](C)[C@@H](O[C@@H]2O[C@H](C)C[C@H](N(C)C)[C@H]2O)[C@](C)(O)C[C@@H](C)CN(C)[C@H](C)[C@@H](O)[C@]1(C)O |  | hospitalized pneumonia patients, clinical isolates | Fine score 70 or more |  | susceptible isolates | 38.5%
CCc1cc(=O)c2c(OCC(O)CNC(C)(C)C)c3ccoc3c(OC)c2o1 (stereo not shown) | microbial growth, broth dilution | ATCC25 | 19 h |  | MIC | > 256 µg/mL
O=C(O)CSc1nnc(C23CC4CC(CC(C4)C2)C3)n1-c1ccccc1 |  | IFO 3060 | 200 µg/disc, 24 h, 37 °C |  | inhibition zone diameter | 23 mm
Oc1ccc(-c2nc(-c3ccc(Oc4ccc(C(F)(F)F)cc4)cc3)no2)cc1 | survival | ATCC 27660 MRSA, mouse, peritonitis | intravenous, two doses post-infection |  | ED50 | 40 mg/kg
